Results gathered from unrelated publications.
Protocols differ between the studies behind these lines. Values joined by “and” are separate records of one study, mostly repeats; a detail may differ. ± marks the error that the study gave.
TOP2A: DNA topoisomerase 2-alpha (TOP2A, Homo sapiens, UniProt P11388)
ZBTB11/CRBN: ZBTB11/CRBN (Homo sapiens, UniProt O95625+Q96SW2)

SMILES | target | assay | test system | conditions | scale | measurement | result
C=C1CN(S(=O)(=O)c2ccc(C)cc2)CCCN(Cc2ccccc2)CCCN(S(=O)(=O)c2ccc(C)cc2)C1 | Protein transport protein Sec61 subunit alpha isoform 1 (Homo sapiens, UniProt P61619) | measured: control signal peptide-FLuc reporter | HEK293 | 0.04 mM, 6 h | – | FLuc/RLuc ratio | 1.07
Nc1nc2c(ncn2[C@@H]2O[C@H](COP(=O)(O)OP(=O)(O)O)[C@@H](O)[C@H]2O)c(=O)[nH]1 | Elongation factor Tu, chloroplastic (TUFA, Arabidopsis thaliana, UniProt P17745) | HPLC | – | 100 µM, 60 min, 25 °C, loaded, added: MgCl2 10 mM, DTT 10 mM | – | bound nucleotide per protein | ~0.9
c1ccc(C(NCc2cccnc2)(c2ccccc2)c2ccccc2)cc1 | KCNQ1 (Homo sapiens, UniProt P51787) | ion current, inhibitor, whole-cell patch clamp | tsA201 | current at end of depolarization, no correction | – | Hill coefficient | 0.64
OC[C@H]1OC(O)[C@H](O)[C@@H](O)[C@@H]1O (stereo partly shown) | Hexokinase-3 (HK3, Homo sapiens, UniProt P52790, A499V) | substrate inhibition | – | mutant A499V, partial substrate inhibition model, added: ATP 20 mM | – | V∞/Vmax ratio (b) | 0.32 ± 0.04
CN1CCN(c2ccc([N+](=O)[O-])cc2NC(=O)c2nn(C)c3ccccc23)CC1 | WDR5 (Homo sapiens, UniProt P61964) | surface plasmon resonance | – | concentration not given | – | binding response | 27%
CC(=O)N[C@H](C(=O)N1C[C@H](O)C[C@H]1C(=O)NCc1ccc(-c2scnc2C)cc1)C(C)(C)SCCCCCCNC(=O)C[C@@H]1N=C(c2ccc(Cl)cc2)c2c(sc(C)c2C)-n2c(C)nnc21 | Bromodomain-containing protein 3, BD2 (BRD3, Homo sapiens, UniProt Q15059) | binding, ITC | – | 25 °C, compound in cell, protein in syringe | – | ΔH | -12.73 ± 0.04 kcal/mol
O=c1nc(SCc2cc(F)cc(C(F)(F)F)c2)nc(SCc2csc3ccc(Cl)cc23)[nH]1 | TOP2A | DNA cleavage | – | 31.25 µM, replicate 1 | – | linear DNA | 3.64%
Cc1nnc2n1-c1sc(C#Cc3cnn(C4(CCN5CCN(C)CC5)CN(c5cccc6c5C(=O)N(C5CCC(=O)NC5=O)C6=O)C4)c3)c(Cc3ccccc3)c1COC2 (stereo not shown) | BRD3 (Homo sapiens, UniProt Q15059) | degrader, western blot | SCID mouse MDA-MB-231 xenograft, tumour | intraperitoneal, 20 mg/kg single dose, 3 to 48 h | – | protein level | no effect
CN1CCN(c2cc(-c3ccncc3)c(-c3ccc4ccccc4c3)nn2)CC1 | LPAR3 (Homo sapiens, UniProt Q9UBY5) | agonist, FLIPR | – | 12.5 µM | – | activation | -1.4%
CCCCc1nnc2c(N)nc3ccccc3n12 | TLR7 (Homo sapiens, UniProt Q9NYK1) | reporter gene, agonist, NF-κB reporter | HEK-Blue TLR7 | – | – | EC50 | inactive
O=C(O)CCn1ccccc1=O | Ubiquitin carboxyl-terminal hydrolase 49, ZnF-UBD domain (USP49, Homo sapiens, UniProt Q70CQ1) | – | – | – | – | Kd | > 1000 µM
Nc1nc2c(ncn2[C@@H]2O[C@H](COP(=O)(O)O)[C@@H](O)[C@H]2O)c(=O)[nH]1 | GUK1 (Homo sapiens, UniProt Q16774, Y81A) | enzyme activity, NADH-coupled | – | 250 µM | – | reaction rate | 2.12 s⁻¹ and 2.09 s⁻¹ and 2.77 s⁻¹
Nc1ncnc2c1ncn2[C@@H]1O[C@H](C[C@@H](N)CC[C@H](N)C(=O)O)[C@@H](O)[C@H]1O | O-methyltransferase (Sorghum bicolor, UniProt A0A1B6PFV1) | – | – | concentration not given, added: PTR+ | – | ΔG of binding | -6.76 kcal/mol
CC[C@@H]1[C@H](F)C(=O)N[C@@H]1COc1nccc2cc(C(N)=O)c(OC)cc12 | TP53RK (Homo sapiens, UniProt Q96S44) | ATP probe binding, KiNativ profiling, measured: ATP loop probe site | THP-1 cell lysate | 0.2 mM | – | inhibition | 15.3%
CCC(C)(NCCc1ccc(Cl)c(Cl)c1)c1cccc(NC2=CC(=O)N(C3CCC(=O)NC3=O)C2=O)c1 (stereo not shown) | ZBTB11/CRBN | protein degradation, degrader, HiBiT luminescence | MOLT-4 | – | – | Dmax | 60%
OC1(c2ccc(Cl)cc2)CCN(Cc2c[nH]c3ccccc23)CC1 | CatSper channel complex (Homo sapiens, UniProt Q7RTX7+Q86XQ3+Q8NEC5+Q96P56) | ion current, whole-cell patch clamp | human sperm | 10 µM, at -80 mV | – | inward current density | -5 ± 0.5 pA/pF
Cc1n[nH]c2ccc(-c3cc(OC[C@@H](N)Cc4ccccc4)cnc3-c3ccoc3)cc12 | Negative regulator of the PHO system (PHO85, Candida albicans, UniProt Q9HGY5) | kinase binding, competitor, MIB/MS competition, measured: PHO85 | Candida albicans cell lysate | 10 µM | relative to: DMSO | log2 fold change | -0.87

SMILES | target | assay | test system | conditions | scale | measurement | result
Nc1ncnc2c1ncn2[C@@H]1O[C@H](COP(=O)(O)CP(=O)(O)OP(=O)(O)O)[C@@H](O)[C@H]1O | P2X purinoceptor 1 (P2RX1, Homo sapiens, UniProt P51575, F188L) | calcium influx | – | 316 nM | relative to: ionomycin response | calcium influx | 87.5% and 85.3% and 94%
O=C(O)c1ccc(Nc2ncc3c(n2)-c2ccc(Cl)cc2C(c2c(F)cccc2F)=NC3)cc1 | human CK2α2(h) | kinase activity | – | 1 µM | – | remaining activity | 120%
Nc1ncnc2c1ncn2[C@@H]1O[C@H](COP(=O)(O)OP(=O)(O)O)[C@@H](O)[C@H]1O | CKMT1A (Homo sapiens, UniProt P12532, D359N) | substrate, Kinase-Glo luminescence | – | pH 7.0, reverse reaction, D321N mutant, added: second substrate in excess | – | kcat | 12 ± 5 s⁻¹
C=CC(=O)N1CCC(COCC(=O)N2CCN(c3nc(-c4cnc(N)nc4C(F)F)nc(N4CCOC[C@@H]4C)n3)CC2)CC1 | CSF1R (Homo sapiens, UniProt P07333) | KINOMEscan | – | 1 µM | – | remaining binding | 86%
CCCCCCCC(=O)c1cc(OC)c(OC)c(OC)c1CC(=O)OCC | NR1D1 (Homo sapiens, UniProt P20393) | reporter gene, Gal4 hybrid reporter | – | 10 µM | relative to: vehicle | activation | 0.94 fold
O=C(CCCCCCC(=O)Nc1ccccc1)NO | HDAC8 (Homo sapiens, UniProt Q9BY41) | ITC | phosphate buffer | concentration not given, pH 7.5 | – | binding stoichiometry | 0.8
Cc1nc(CSc2nc(SCc3ccc(C(C)C)cc3)nc(=O)[nH]2)cs1 | TOP2A | DNA relaxation | – | 125 µM | – | mean relaxed DNA | 18.7%
NCCCCC(=O)O | SLC6A6 (Homo sapiens, UniProt P31641, Y138A) | binding, microscale thermophoresis | – | 61 nM, room temperature, added: 50 nM labelled protein | higher = more binding | normalised MST signal | 0.0531
O=C(O)CNc1ncnc2ccccc12 | Ubiquitin carboxyl-terminal hydrolase 20, ZnF-UBD domain (USP20, Homo sapiens, UniProt Q9Y2K6) | – | – | – | – | Kd | > 1000 µM
CCN(CCO)CCCC(C)Nc1ccnc2cc(Cl)ccc12 (stereo not shown) | SCN5A (Homo sapiens, UniProt Q14524) | sodium current | – | 10 µM | – | inactivation V1/2 | -83.8 ± 4.7 mV
O=C(NC1CCC1)c1ccc2nc(-c3cccc(NS(=O)(=O)NCCN4CCCCC4)c3)cn2c1 | KIT (Homo sapiens, UniProt P10721, D816H) | enzyme activity | – | 10 µM | – | remaining activity | 89%
NCCCC(=O)O | SLC6A6 (Homo sapiens, UniProt P31641, G62A) | binding, microscale thermophoresis | – | 250 µM, room temperature, added: 50 nM labelled protein | higher = more binding | normalised MST signal | 0.0432
O=[N+]([O-])c1cc(C(F)(F)F)ccc1NCc1ccco1 | Endothelial PAS domain-containing protein 1, PAS-B domain (EPAS1, Homo sapiens, UniProt Q99814, N288Q) | binding, ITC, reverse mode | – | – | – | ΔH | -8.75 ± 0.18 kcal/mol
N=c1c[n+](N2CCOCC2)[n-]o1 | SIRT6 (Homo sapiens, UniProt Q8N6T7) | covalent inactivator, HPLC demyristoylase | – | pH 7.5, 37 °C, peroxynitrite donor, time-dependent, added: NAD+ | – | KI | 3.1 ± 0.9 µM
Nc1ccn([C@H]2C[C@H](O)[C@@H](CO)O2)c(=O)n1 | deoxyribonucleoside phosphotransferase I (Trichomonas vaginalis) | substrate | – | added: p-nitrophenylphosphate 100 mM | – | Km | 2350 ± 380 µM
Nc1ccc(C(=O)O)cc1 | BEST1, with wild-type BEST1 (Homo sapiens, UniProt O76090, L234P) | ion current, whole-cell patch clamp | HEK293 co-expressing mutant and wild-type | concentration not given, voltage 60 mV | – | current density | 10.8 pA/pF and 13.2 pA/pF and 17.9 pA/pF and 5.61 pA/pF and 33.1 pA/pF and 8.99 pA/pF
CC(C)(NCCc1ccc(C(F)(F)F)c(Cl)c1)c1cccc(NC2=CC(=O)N(C3CCC(=O)NC3=O)C2=O)c1 (stereo not shown) | ZBTB11/CRBN | protein degradation, degrader, HiBiT luminescence | MOLT-4 | – | – | Dmax | 41%

A few entries again:
SMILES | target | assay | test system | conditions | scale | measurement | result
O=C(O)CCn1ccccc1=O | Ubiquitin carboxyl-terminal hydrolase 49, ZnF-UBD domain (USP49, Homo sapiens, UniProt Q70CQ1) | – | – | – | – | Kd | > 1000 µM
CC(C)(NCCc1ccc(C(F)(F)F)c(Cl)c1)c1cccc(NC2=CC(=O)N(C3CCC(=O)NC3=O)C2=O)c1 (stereo not shown) | ZBTB11/CRBN | protein degradation, degrader, HiBiT luminescence | MOLT-4 | – | – | Dmax | 41%
Nc1ncnc2c1ncn2[C@@H]1O[C@H](COP(=O)(O)OP(=O)(O)O)[C@@H](O)[C@H]1O | CKMT1A (Homo sapiens, UniProt P12532, D359N) | substrate, Kinase-Glo luminescence | – | pH 7.0, reverse reaction, D321N mutant, added: second substrate in excess | – | kcat | 12 ± 5 s⁻¹
Cc1nc(CSc2nc(SCc3ccc(C(C)C)cc3)nc(=O)[nH]2)cs1 | TOP2A | DNA relaxation | – | 125 µM | – | mean relaxed DNA | 18.7%
